Literature values that unrelated publications cite.
Protocols differ between the studies behind these lines. Values joined by “and” are separate records of one study, mostly repeats; a detail may differ. ± gives the spread as reported.

The chains behind the UniProt entries cited, without tags or fusion partners.
UniProt P04757, whole entry, looked up: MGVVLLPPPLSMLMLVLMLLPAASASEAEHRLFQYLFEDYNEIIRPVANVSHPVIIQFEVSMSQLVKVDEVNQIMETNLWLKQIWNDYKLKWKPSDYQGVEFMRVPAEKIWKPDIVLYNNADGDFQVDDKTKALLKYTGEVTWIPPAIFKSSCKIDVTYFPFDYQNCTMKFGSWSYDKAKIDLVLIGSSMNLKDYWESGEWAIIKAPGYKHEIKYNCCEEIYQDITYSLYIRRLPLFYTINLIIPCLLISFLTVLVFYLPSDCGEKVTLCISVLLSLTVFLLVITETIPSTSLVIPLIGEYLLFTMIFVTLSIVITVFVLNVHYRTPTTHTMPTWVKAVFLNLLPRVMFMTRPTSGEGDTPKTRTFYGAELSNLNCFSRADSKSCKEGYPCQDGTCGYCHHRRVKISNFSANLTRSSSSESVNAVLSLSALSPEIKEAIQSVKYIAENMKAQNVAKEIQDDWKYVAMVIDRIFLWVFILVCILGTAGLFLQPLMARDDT
UniProt P12390, whole entry, looked up: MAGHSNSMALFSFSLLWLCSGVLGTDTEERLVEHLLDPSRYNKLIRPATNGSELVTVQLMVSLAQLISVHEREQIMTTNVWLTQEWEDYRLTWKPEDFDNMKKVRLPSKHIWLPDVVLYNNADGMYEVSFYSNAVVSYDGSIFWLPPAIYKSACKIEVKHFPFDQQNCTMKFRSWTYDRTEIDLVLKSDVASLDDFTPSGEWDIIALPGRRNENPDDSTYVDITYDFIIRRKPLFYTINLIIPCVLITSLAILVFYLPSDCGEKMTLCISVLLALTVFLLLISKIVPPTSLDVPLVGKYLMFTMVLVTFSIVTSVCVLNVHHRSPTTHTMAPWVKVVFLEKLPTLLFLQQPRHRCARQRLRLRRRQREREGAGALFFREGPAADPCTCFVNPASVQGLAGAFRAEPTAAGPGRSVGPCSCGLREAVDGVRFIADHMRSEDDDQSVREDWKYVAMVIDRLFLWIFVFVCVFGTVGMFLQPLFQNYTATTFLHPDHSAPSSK
UniProt P43143, whole entry M241L/F253L/V303I/V320I/I327V/A333T/K339T, looked up: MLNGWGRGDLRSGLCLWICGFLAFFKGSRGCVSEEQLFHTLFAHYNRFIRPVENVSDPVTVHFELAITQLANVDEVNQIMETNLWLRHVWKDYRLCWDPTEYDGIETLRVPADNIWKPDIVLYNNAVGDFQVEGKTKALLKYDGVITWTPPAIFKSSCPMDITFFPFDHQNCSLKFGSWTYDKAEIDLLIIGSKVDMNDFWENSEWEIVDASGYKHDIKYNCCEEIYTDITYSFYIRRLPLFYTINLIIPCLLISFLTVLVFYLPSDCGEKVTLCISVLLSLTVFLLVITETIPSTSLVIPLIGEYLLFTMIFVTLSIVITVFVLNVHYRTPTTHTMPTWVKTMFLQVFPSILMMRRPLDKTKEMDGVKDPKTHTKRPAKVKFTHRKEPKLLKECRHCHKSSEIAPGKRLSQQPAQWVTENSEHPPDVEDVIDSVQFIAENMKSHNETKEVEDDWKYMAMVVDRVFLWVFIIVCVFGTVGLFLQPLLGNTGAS
UniProt P49146, whole entry: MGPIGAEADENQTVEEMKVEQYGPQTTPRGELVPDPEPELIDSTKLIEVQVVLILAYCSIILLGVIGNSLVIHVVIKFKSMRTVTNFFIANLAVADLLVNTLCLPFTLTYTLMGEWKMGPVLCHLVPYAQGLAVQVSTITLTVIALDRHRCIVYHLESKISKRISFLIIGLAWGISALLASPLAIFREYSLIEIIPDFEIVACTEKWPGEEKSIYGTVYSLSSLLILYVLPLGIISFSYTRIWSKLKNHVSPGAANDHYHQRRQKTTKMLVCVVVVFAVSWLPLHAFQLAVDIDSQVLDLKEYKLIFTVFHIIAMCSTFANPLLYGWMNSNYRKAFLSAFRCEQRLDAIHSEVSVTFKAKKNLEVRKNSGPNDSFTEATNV

SMILES	tested on	assay	system	conditions	how to read	endpoint	value
Nc1nc(O)c2nc(CNc3ccc(C(=O)O)cc3)cnc2n1	Ricin, A chain (Ricinus communis, UniProt P02879)	in vitro translation, inhibitor				IC50	600 µM
CN(C)[C@]1(c2ccccc2)CC[C@]2(CC1)OCCc1c3cc(F)ccc3[nH]c12			rodent chronic pain models		reference: morphine	relative potency	~1000 fold
Nc1nc2nc(C(=O)O)cnc2c(=O)[nH]1	ricin A chain					IC50	200 µM and ~200 µM and 230 µM
CN(C)C(=O)Oc1ccc[n+](C)c1			mouse		reference: LD50 pretreated over non-pretreated	protective ratio	0.9
O=c1c2ccccc2[se]n1-c1ccccc1	Botulinum neurotoxin type A, light chain (Clostridium botulinum, UniProt P0DPI0)	irreversible inhibitor				kinact/Ki	23000 M⁻¹ s⁻¹
CN1CC[C@]23c4c5ccc(O)c4O[C@H]2[C@@H](O)C=C[C@H]3[C@H]1C5		antinociception, warm-water tail withdrawal	Swiss Webster mice			ED50	7.8 mg/kg
N#Cc1nn(-c2c(Cl)cc(C(F)(F)F)cc2Cl)c(N)c1[S+]([O-])C(F)(F)F (stereo not drawn)	GABA-A receptor	binding		1 µM, with: [3H]EBOB		inhibition	69%
CN1CC[C@]23c4c5ccc(O)c4O[C@H]2[C@@H](O)C=C[C@H]3[C@H]1C5		hot plate test	rat	subcutaneous		ED50	3.94 mg/kg
CNC(=O)ON=CC(C)(C)SC						half-life	0.5 to 0.667 h
CCOP(=S)(CC)Sc1ccccc1 (stereo not drawn)	acetylcholinesterase	inhibitor, qHTS		with: human liver microsomes		IC50	2.24 µM
CC(C)C[C@@H]1NC(=O)[C@H](CCC(=O)O)NC(=O)[C@@H]2CCCN2C(=O)[C@H](Cc2c[nH]cn2)NC(=O)[C@H](CCC(=O)O)NC(=O)[C@H](C(C)C)NC(=O)[C@H](CO)NC(=O)[C@@H]2CSSC[C@H](NC(=O)CN)C(=O)N[C@@H](CSSC[C@@H](C(N)=O)NC1=O)C(=O)N[C@@H](CO)C(=O)N[C@@H](Cc1c[nH]cn1)C(=O)N1CCC[C@H]1C(=O)N[C@@H](C)C(=O)N2	Chrna3/Chrnb2/Chrna6, with beta3 subunit (Rattus norvegicus, UniProt P04757+P12390+P43143)	antagonist				IC50	0.114 µM
O=[As]c1ccccc1 (stereo not drawn)	Neuropeptide Y receptor type 2 (NPY2R, Homo sapiens, UniProt P49146)	binding	membrane particulates			Ki	> 2000 µM
CNC(=O)Oc1cccc2c1OC(C)(C)C2	cholinesterases			concentration not given, spontaneous reactivation		reactivation half-life	~2 h
COC(=O)[C@@H]1[C@H]2C[C@H]3c4[nH]c5ccccc5c4CCN3C[C@@H]2CC[C@@H]1O			Sprague-Dawley rat	dose not given, higher dose, with: fentanyl		reversal of respiratory depression	~50%
O=C(NN1C(=O)[C@@H]2[C@@H]3C=C[C@@H]([C@H]4C[C@@H]34)[C@@H]2C1=O)c1ccc(C(F)(F)F)cc1	monkeypox virus	viral replication	Vero E6, Zaire			EC50	0.008 ± 0.0014 µM

A few entries again:
SMILES	tested on	assay	system	conditions	how to read	endpoint	value
CC(C)C[C@@H]1NC(=O)[C@H](CCC(=O)O)NC(=O)[C@@H]2CCCN2C(=O)[C@H](Cc2c[nH]cn2)NC(=O)[C@H](CCC(=O)O)NC(=O)[C@H](C(C)C)NC(=O)[C@H](CO)NC(=O)[C@@H]2CSSC[C@H](NC(=O)CN)C(=O)N[C@@H](CSSC[C@@H](C(N)=O)NC1=O)C(=O)N[C@@H](CO)C(=O)N[C@@H](Cc1c[nH]cn1)C(=O)N1CCC[C@H]1C(=O)N[C@@H](C)C(=O)N2	Chrna3/Chrnb2/Chrna6, with beta3 subunit (Rattus norvegicus, UniProt P04757+P12390+P43143)	antagonist				IC50	0.114 µM
O=[As]c1ccccc1 (stereo not drawn)	Neuropeptide Y receptor type 2 (NPY2R, Homo sapiens, UniProt P49146)	binding	membrane particulates			Ki	> 2000 µM
